Literature values that unrelated publications cite.
Protocols differ between the studies behind these lines. ± marks the error that the study gave. ≈ marks a conversion by molar mass, not a printed value.
Sequence of UniProt Q9NRM7 (whole entry, looked up): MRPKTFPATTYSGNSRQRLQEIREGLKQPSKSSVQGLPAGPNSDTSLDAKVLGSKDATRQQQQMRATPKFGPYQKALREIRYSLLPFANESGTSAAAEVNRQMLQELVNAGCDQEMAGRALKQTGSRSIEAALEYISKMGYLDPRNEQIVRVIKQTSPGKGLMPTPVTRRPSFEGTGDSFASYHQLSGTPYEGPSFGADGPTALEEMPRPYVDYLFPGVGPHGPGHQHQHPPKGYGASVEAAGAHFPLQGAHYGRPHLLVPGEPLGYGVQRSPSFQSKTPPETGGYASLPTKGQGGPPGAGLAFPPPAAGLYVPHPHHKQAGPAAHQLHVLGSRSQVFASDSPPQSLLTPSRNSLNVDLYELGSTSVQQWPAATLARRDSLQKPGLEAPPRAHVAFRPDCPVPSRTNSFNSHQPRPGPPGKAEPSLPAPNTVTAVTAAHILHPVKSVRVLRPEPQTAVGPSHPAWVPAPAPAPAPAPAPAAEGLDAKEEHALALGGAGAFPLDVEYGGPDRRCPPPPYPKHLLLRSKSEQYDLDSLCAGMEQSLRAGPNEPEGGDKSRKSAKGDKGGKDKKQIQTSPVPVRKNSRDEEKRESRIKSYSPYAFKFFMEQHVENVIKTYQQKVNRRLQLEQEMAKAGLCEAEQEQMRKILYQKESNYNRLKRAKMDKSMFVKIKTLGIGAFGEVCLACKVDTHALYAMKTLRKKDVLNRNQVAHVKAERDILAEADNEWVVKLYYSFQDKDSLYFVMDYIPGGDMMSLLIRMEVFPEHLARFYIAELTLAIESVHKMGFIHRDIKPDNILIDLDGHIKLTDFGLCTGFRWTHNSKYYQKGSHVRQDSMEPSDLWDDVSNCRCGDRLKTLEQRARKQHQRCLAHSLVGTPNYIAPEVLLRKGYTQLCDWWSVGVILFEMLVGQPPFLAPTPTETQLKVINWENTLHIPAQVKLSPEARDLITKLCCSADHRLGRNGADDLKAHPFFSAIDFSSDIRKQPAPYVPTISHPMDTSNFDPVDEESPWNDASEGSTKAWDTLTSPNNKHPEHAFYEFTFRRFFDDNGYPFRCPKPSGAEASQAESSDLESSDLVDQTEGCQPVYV

C=CCCC(=O)O — EC10 (craniofacial deformation; zebrafish embryo; nominal concentration): 626 µM
COc1c(Cl)cccc1Nc1c(-c2ccncc2OC[C@@H]2COCCO2)[nH]c2c1C(=O)NCC2 — treatment-related AEs incidence (patients, NSCLC, HER2-mutant, previously treated; dose not given, grade ≥3): 38%
O=C1Nc2ccc(Cl)cc2[C@@](C#CC2CC2)(C(F)(F)F)O1 — steady-state concentration (HIV-infected patients; 600 mg once daily, multiple doses): 1640 ± 930 ng/mL
CCCCCCCOC(=O)c1ccc(O)cc1 — logD (pH 7.4): 4.66
CC(C)n1c(=O)n(C)c2cnc3cc(F)c(-c4ccc(OCCCN5CCCCC5)nc4)cc3c21 — Kp,uu (mouse, brain over plasma): 0.04
CO[C@H]1/C=C/O[C@@]2(C)Oc3c(C)c(O)c4c(O)c(c(/C=N/N5CCN(C)CC5)c(O)c4c3C2=O)NC(=O)/C(C)=C\C=C\[C@H](C)[C@H](O)[C@@H](C)[C@@H](O)[C@@H](C)[C@H](OC(C)=O)[C@@H]1C — renal clearance (human): 264 mL/day/kg
N#C[C@@]1(c2ccc3c(N)ncnn23)O[C@H](CO)[C@@H](O)[C@H]1O — plasma concentration (dog, plasma; intravenous, 2 mg/kg, 4 h, solution): 574 ng/mL
Oc1ccc(C(c2ccc(O)cc2)(C(F)(F)F)C(F)(F)F)cc1 — elimination half-life (rat, plasma; dose not given): 9 to 13 h
c1ccc2cc3ccccc3cc2c1 — logKow (slow stirring): 4.73
O=c1[nH]cnc2c1ncn2[C@H]1CC[C@@H](CO)O1 — oral bioavailability (rat): 9.5%
CC(C)Cc1ccc(C(C)C(=O)O)cc1 (centres unmarked) — steady-state concentration (rat, brain): ~3.5 µM
CNC(C)C1CCC(N)C(OC2C(N)CC(N)C(OC3OCC(C)(O)C(NC)C3O)C2O)O1 (centres unmarked) — MIC (Escherichia coli; clinical isolate RKI-No_95/15): 1 mg/L (≈ 2.09 µM)
Cc1cc(C[C@@H](NC(=O)N2CCC(c3cc4ccccc4[nH]c3=O)CC2)C(=O)N2CCN(C3CCN(C)CC3)CC2)cc2cn[nH]c12 — biliary/fecal elimination (human; intravenous, 5 mg single dose): > 80%
CC(=O)c1c(C)c2cnc(Nc3ccc(N4CCNCC4)cn3)nc2n(C2CCCC2)c1=O — Cmax (female rat; 200 mg/kg): 586 ng/mL
C[Si]1(C)O[Si](C)(C)O[Si](C)(C)O[Si](C)(C)O[Si](C)(C)O1 — log KOA (0.13 0.24 µg/L in water, 24.6 °C): 4.94
OCc1cc(C(O)CNCCCCCCOCCCCc2ccccc2)ccc1O (centres unmarked) — lung deposited fraction (human; inhaled): 0.2
C[C@H]1COCCN1c1nc(-c2cnc(N)cc2C(F)F)nc(N2CCOCC2)n1 — GI50 (A549): 250 nM
CN(C)c1ccc2nc3ccc(=[N+](C)C)cc-3sc2c1 — bioavailability (human): ~73%
CCN1CCN(Cc2ccc(Nc3ncc(F)c(-c4cc(F)c5nc(C)n(C(C)C)c5c4)n3)nc2)CC1 — parent share of plasma radioactivity (dog, plasma; dose not given): ~41%
CN(C)C(=O)c1cc2cnc(Nc3ccc(N4CCNCC4)cn3)nc2n1C1CCCC1 — decrease in AUCinf (human; 600 mg single dose, together with: rifampicin 600 mg daily for 14 days; relative to: compound alone): 89%
CCCOc1ccc(S(=O)(=O)N2CCN(CCO)CC2)cc1-c1nc2c(CCC)cn(CC)c2c(=O)[nH]1 — systolic blood pressure change (healthy male volunteers; dose not given, with concomitant alcohol): -15.1 mmHg
CC(C)(C)c1cc(C(C)(C)C)c(NC(=O)c2c[nH]c3ccccc3c2=O)cc1O — mean plasma concentration (human adults with cystic fibrosis, plasma): ~4 µM
CC1(C)S[C@@H]2[C@H](NC(=O)[C@H](N)c3ccccc3)C(=O)N2[C@H]1C(=O)O — MIC (Escherichia coli; clinical isolate RKI-No_514/16): > 16 mg/L
O=C(c1cccnc1-c1ccncc1)N1CCC(O)(Cc2ccccc2)CC1 — participants with TEAE (human adults; dose not given, placebo-controlled period): 71.4%
Nc1cc(C(F)(F)F)c(-c2nc(N3CCOCC3)nc(N3CCOCC3)n2)cn1 — remaining activity (LATS2 (Homo sapiens, UniProt Q9NRM7); enzyme activity; 10 µM; relative to: untreated): 100%
O=C(COc1ccc(N2C(=O)[C@@H]3[C@@H]4C=C[C@@H]([C@H]5C[C@@H]45)[C@@H]3C2=O)cc1)c1cc(Cl)cc(Cl)c1 — AUC(0-last) (mouse, brain; intravenous, 5 mg/kg): 768000 ng·min/g

Repeated from above:
COc1c(Cl)cccc1Nc1c(-c2ccncc2OC[C@@H]2COCCO2)[nH]c2c1C(=O)NCC2 — treatment-related AEs incidence (patients, NSCLC, HER2-mutant, previously treated; dose not given, grade ≥3): 38%
CCCOc1ccc(S(=O)(=O)N2CCN(CCO)CC2)cc1-c1nc2c(CCC)cn(CC)c2c(=O)[nH]1 — systolic blood pressure change (healthy male volunteers; dose not given, with concomitant alcohol): -15.1 mmHg
